Experimental data of several laboratories.
A part holds a random share of what one study measured.
UniProt O15294, sequence (whole entry, looked up): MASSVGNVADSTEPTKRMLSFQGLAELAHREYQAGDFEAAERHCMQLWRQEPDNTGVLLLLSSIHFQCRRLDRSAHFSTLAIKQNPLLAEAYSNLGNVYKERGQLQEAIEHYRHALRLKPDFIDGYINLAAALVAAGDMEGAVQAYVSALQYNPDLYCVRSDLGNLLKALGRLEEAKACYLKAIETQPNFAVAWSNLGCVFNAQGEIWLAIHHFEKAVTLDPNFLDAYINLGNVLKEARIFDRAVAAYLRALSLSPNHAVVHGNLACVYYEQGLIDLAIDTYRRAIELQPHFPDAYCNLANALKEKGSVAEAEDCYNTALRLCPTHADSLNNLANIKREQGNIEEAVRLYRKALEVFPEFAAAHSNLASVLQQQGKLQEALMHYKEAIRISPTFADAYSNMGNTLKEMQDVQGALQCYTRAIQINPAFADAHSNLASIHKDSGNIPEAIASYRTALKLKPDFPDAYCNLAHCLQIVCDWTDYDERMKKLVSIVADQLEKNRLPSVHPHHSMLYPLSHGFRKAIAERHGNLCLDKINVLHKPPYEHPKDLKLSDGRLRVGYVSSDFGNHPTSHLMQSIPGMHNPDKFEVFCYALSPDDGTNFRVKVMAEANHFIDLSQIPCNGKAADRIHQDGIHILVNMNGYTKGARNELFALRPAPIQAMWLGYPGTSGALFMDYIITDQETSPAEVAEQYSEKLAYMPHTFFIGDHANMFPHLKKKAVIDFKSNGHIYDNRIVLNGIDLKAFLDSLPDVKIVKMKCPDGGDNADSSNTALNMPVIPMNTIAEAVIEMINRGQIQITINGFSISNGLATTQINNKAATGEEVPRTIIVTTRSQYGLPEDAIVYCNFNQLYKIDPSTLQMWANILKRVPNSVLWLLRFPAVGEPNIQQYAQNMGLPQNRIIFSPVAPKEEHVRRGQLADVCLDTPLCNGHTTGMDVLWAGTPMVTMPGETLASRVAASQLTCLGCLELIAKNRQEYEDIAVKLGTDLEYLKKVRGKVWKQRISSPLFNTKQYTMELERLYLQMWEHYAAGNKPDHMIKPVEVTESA

Set 1
Target: Myc proto-oncogene protein, bHLH-zipper, MAX partner unstated (MYC, Homo sapiens, UniProt P01106, residues 368-449)
UniProt P01106, sequence (368-449, looked up): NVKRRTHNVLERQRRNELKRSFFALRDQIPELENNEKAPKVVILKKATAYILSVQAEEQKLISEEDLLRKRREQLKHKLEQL
Technique: protein-binding microarray
Molecule type: double-stranded DNA, one strand shown
Medium: in vitro
Concentration: not given
Notes: k-mer, scored over probes, only values ≥0.25
Reading: higher = stronger binding
Oligonucleotide	E-score
ACGCGAGC	0.261
CGCATGAC	0.398
CGTGTATC	0.326
CATGGGTA	0.312
ACATGTAG	0.31
AGGTCACG	0.296
CGGCACGC	0.381
CATGTAGG	0.253

Set 2
Target: TAR DNA-binding protein 43, full length, His tag (TARDBP, Homo sapiens, UniProt Q13148, residues 1-414)
Technique: RNA Bind-n-Seq
Molecule type: RNA
Medium: in vitro
Concentration: 20 nM
Notes: 6-mer, flanks averaged, single round
With: 150 mM KCl
Baseline: input library
Reading: higher = stronger binding
Oligonucleotide	6-mer enrichment (R)
CCCGGU	0.723
UUAACC	0.59
UUUAAC	0.595
CGGUGU	1.27
GCGCAC	0.982
AACAUA	0.638
CAUGGA	0.884
CGUCCA	0.65

Set 3
Target: Histone acetyltransferase KAT6A, winged helix 1, GST fusion (KAT6A, Homo sapiens, UniProt Q92794, residues 1-85)
Technique: protein binding microarray
Molecule type: double-stranded DNA, one strand shown
Medium: in vitro
Concentration: not given
Notes: 8-mer, flanks averaged, mean of 2 arrays, mostly near background
Baseline: not given
Reading: higher = stronger binding
Target sequence (chain): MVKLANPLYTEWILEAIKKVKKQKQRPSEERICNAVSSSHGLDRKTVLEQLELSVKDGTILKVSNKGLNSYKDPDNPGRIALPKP
Oligonucleotide	E-score
CGTGGAGC	0.172
ACAGGGGA	-0.218
GAACTTCA	-0.169
AATCTCGG	0.128
CCTTATTC	-0.224
CCTGTCGA	-0.164
AACAATAT	-0.0477
TACTTCCA	-0.193

Other studies, line by line
Molecule	target	observed	technique	molecule type	baseline	measurement	value
DSWFHAFAHHGHNTP	UDP-N-acetylglucosamine--peptide N-acetylglucosaminyltransferase 110 kDa subunit (OGT, Homo sapiens, UniProt O15294)	binding	phage display NGS	peptide	input library	minimum log2 enrichment ratio	2.66

Repeated from above (set 1):
Oligonucleotide	E-score
AGGTCACG	0.296
CGGCACGC	0.381
